# Measurements collected from several papers.
# Parts stem from different laboratories: compare values within a part only.
# UniProt O96013, sequence (whole entry, looked up): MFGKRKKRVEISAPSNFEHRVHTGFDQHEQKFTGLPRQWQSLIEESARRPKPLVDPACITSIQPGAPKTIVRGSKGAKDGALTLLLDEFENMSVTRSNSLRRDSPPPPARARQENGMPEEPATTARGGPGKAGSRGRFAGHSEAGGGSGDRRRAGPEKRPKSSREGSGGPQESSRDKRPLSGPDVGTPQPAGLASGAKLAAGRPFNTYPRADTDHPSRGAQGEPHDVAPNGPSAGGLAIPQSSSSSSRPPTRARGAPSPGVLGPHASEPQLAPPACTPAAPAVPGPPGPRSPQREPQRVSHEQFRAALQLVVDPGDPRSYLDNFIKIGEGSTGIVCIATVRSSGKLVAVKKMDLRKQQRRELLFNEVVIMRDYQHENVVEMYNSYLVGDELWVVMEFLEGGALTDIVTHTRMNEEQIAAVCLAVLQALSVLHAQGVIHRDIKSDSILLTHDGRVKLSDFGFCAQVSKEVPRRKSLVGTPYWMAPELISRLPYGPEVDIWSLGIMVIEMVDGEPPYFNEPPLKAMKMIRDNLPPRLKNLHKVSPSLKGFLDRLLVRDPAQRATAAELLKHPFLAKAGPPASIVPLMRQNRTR
# UniProt P31645, sequence (whole entry, looked up): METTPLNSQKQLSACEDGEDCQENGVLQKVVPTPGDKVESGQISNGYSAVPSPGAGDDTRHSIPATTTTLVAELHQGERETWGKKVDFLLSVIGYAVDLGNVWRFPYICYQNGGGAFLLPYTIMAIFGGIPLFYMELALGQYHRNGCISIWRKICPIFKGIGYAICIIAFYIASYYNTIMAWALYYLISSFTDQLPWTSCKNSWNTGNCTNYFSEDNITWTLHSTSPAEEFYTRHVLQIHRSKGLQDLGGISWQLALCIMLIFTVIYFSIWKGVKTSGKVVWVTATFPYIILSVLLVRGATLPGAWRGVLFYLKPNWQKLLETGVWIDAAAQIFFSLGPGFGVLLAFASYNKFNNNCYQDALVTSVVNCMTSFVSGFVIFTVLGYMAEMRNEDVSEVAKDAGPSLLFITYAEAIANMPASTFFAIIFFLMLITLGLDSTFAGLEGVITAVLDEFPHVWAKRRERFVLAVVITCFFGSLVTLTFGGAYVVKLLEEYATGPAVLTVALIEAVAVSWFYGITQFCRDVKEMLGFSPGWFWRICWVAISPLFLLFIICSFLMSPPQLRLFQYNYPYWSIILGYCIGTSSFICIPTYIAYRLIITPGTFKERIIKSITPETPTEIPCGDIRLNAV
# UniProt Q01959, sequence (whole entry, looked up): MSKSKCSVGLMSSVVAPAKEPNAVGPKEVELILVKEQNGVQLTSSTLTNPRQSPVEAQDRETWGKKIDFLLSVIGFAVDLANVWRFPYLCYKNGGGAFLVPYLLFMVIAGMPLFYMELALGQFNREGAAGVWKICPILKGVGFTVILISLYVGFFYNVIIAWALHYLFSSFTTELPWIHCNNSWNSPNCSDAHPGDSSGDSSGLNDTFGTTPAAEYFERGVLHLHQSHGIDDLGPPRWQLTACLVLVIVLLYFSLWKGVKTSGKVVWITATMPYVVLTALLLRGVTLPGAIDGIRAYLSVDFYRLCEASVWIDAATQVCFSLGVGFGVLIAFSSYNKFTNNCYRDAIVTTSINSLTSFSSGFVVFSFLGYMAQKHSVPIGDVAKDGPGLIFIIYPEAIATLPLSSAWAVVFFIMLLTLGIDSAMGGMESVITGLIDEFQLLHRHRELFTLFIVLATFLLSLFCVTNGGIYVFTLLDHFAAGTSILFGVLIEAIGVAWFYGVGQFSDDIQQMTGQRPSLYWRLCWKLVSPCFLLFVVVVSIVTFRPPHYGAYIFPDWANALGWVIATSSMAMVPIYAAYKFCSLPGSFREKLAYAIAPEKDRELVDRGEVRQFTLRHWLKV
# UniProt P07332, sequence (whole entry, looked up): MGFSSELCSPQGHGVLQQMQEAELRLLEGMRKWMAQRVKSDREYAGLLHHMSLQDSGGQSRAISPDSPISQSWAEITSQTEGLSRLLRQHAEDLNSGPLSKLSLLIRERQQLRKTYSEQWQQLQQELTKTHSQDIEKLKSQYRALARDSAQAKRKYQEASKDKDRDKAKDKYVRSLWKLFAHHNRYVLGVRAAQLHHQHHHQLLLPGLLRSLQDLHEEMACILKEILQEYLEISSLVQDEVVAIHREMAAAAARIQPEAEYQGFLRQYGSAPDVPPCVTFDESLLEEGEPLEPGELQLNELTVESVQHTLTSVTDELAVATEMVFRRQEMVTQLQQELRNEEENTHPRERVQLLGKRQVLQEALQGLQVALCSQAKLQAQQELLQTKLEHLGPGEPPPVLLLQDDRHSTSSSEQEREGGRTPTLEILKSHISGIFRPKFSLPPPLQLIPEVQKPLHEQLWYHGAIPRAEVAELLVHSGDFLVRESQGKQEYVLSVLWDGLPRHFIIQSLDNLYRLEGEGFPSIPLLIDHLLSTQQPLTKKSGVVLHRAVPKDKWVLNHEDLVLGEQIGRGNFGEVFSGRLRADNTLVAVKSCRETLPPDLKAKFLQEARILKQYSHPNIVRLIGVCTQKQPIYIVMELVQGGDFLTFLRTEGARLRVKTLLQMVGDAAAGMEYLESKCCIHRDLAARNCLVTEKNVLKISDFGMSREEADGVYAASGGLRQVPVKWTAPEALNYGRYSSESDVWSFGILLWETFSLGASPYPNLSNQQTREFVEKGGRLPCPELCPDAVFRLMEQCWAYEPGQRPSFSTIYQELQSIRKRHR
# UniProt P11309, sequence (whole entry, looked up): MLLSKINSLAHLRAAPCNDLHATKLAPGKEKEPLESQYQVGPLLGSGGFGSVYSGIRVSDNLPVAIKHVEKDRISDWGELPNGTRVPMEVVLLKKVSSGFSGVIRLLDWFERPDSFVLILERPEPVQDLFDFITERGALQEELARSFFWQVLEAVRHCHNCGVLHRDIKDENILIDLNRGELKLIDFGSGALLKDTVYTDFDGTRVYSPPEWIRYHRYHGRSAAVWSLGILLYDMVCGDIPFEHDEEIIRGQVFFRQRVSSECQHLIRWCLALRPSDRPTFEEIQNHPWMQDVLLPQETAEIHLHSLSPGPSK
# UniProt P23975, sequence (whole entry, looked up): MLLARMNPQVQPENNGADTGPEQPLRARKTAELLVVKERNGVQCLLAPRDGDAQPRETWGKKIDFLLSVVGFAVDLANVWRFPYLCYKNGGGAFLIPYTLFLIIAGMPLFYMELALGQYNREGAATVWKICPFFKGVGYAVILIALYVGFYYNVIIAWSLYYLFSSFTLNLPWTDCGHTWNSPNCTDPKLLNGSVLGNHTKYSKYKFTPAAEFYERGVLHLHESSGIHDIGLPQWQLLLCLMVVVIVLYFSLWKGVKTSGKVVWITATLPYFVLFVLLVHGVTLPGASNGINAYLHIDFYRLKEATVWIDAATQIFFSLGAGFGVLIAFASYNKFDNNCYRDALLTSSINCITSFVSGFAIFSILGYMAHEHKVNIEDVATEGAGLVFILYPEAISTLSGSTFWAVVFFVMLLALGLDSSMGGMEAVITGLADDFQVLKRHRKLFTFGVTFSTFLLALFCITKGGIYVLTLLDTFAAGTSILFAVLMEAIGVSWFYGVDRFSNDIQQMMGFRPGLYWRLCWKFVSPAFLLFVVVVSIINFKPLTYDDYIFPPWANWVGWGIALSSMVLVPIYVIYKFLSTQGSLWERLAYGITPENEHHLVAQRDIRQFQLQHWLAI

# Study 1
# Compound: COc1cccc(NC(=O)c2nc3scc(CN(C)Cc4ccccc4)c3c(=O)[nH]2)c1
# Observed: ligand displacement
# Concentration: 10 µM
target,inhibition
"SLC6A4 (Homo sapiens, UniProt P31645)",84%
"SLC6A3 (Homo sapiens, UniProt Q01959)",-7.85%
"SLC6A2 (Homo sapiens, UniProt P23975)",19.6%

# Study 2
# Structure (SMILES): O=C1NC(=O)c2c1c1c3ccccc3n3c1c1c2c2ccccc2n1[C@H]1CC[C@@H]3O1
# Observed: enzyme activity
# Mode: inhibitor
# Concentration: 0.5 µM
# Reference: control
target,remaining activity
"PIM1 (Homo sapiens, UniProt P11309)",0.435%
"FES (Homo sapiens, UniProt P07332)",42.1%
"JAK2 (Homo sapiens, UniProt O60674)",14.2%
"PAK4 (Homo sapiens, UniProt O96013)",75.3%

# Study 3
# Cell line: mouse MPNST tumor cells
# Method: high-content immunofluorescence imaging
# Item: nuclear SOX9
# Concentration: 10 µM
# Time: 12 h
# Setting: mean of 2 replicates
# Reference: DMSO control
# Reading: higher = more nuclear SOX9
Compound,nuclear SOX9 intensity
O=C(O)CNC(=O)c1c(O)c2ccccc2n(Cc2ccccc2)c1=O,105 % of DMSO
Oc1ccc2c3c1O[C@H]1c4[nH]c5ccccc5c4C[C@@]4(O)[C@@H](C2)N(CC2CC2)CC[C@]314,156 % of DMSO
O=C(O)CCCc1ccc(N(CCCl)CCCl)cc1,109 % of DMSO
CN1C(=O)C(Cc2ccc3ccccc3c2)N=C(c2ccc(O)cc2)c2cc(Cl)ccc21 (centres unmarked),117 % of DMSO

# Mixed results
# Target: Calcium/calmodulin-dependent protein kinase type II subunit alpha (CAMK2A, Homo sapiens, UniProt Q9UQM7)
# UniProt Q9UQM7, sequence (whole entry, looked up): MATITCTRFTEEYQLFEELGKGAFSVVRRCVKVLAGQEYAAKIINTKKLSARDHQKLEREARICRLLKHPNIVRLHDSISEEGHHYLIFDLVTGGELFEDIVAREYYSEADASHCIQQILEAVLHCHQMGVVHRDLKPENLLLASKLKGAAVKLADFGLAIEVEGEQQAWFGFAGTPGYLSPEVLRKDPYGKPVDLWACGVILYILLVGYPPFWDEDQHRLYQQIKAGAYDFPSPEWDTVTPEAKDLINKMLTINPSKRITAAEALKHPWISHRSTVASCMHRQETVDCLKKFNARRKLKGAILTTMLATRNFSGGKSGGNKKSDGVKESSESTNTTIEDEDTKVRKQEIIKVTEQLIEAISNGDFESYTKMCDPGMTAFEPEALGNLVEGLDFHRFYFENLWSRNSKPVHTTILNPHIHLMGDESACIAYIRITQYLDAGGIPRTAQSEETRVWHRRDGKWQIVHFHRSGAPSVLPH
# Observed: enzyme activity
# Mode: inhibitor
# Concentration: 10 µM
Structure (SMILES),inhibition [%]
CC1=CC(=O)c2c(O)cccc2C1=O,-13
CNC[C@H](N)C(=O)O,11
c1cncc(C2=NCCC2)c1,-1

# Repeated from above (study 3):
Compound,nuclear SOX9 intensity
Oc1ccc2c3c1O[C@H]1c4[nH]c5ccccc5c4C[C@@]4(O)[C@@H](C2)N(CC2CC2)CC[C@]314,156 % of DMSO
